Published values from different studies.
Every numbered part comes from another study and shows a few of its results, in no order.

Block 1 — technique: universal PBM; molecule type: double-stranded DNA, one strand shown; sample: in vitro; tested at: 600 nM; direction: higher = stronger binding
Target: Sal-like protein 4, full length isoform A (SALL4, Homo sapiens, UniProt Q9UJQ4, residues 1-1053)
Sequence of UniProt Q9UJQ4 (whole entry, looked up): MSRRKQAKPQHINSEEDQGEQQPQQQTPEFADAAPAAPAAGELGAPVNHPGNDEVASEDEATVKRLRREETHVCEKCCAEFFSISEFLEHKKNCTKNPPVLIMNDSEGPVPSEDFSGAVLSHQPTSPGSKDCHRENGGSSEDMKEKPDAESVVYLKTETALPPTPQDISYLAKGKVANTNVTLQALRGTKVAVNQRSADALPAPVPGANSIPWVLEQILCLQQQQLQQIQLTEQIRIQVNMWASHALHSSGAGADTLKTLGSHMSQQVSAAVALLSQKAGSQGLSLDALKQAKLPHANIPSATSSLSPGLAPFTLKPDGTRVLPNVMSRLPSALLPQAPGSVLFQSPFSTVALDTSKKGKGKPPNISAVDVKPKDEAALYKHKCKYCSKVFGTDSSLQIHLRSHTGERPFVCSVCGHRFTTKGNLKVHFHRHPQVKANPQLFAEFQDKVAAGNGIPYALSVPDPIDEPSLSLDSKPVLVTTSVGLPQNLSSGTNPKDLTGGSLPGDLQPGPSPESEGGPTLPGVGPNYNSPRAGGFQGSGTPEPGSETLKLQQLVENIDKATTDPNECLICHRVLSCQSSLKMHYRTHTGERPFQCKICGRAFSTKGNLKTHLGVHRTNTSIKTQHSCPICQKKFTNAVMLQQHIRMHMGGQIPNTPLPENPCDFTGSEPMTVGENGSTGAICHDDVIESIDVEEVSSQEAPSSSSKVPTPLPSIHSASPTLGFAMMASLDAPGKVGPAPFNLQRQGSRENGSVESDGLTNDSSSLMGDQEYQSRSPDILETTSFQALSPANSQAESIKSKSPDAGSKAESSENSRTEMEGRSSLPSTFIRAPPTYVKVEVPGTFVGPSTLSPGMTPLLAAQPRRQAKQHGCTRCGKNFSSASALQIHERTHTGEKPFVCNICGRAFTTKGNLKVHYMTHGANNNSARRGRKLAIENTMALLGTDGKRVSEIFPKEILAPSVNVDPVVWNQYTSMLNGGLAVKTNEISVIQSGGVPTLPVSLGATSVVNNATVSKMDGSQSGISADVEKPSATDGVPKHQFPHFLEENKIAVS
Setting: 8-mer, flanks averaged, mean of replicates
Sequence | E-score
AAGATTAA | 0.319
AGATTCCG | -0.0223
CACAATCG | 0.0506
GTATTAAA | 0.316
ACTGACTC | -0.128
AAACGGCC | -0.171
GGATACAC | -0.119
AAGGCAGG | 0.0337
GACAAATA | 0.271
AGGCCAGA | -0.139
ACTGCATC | 0.032
GAGGGTAC | -0.258
AAACTGTG | 0.00776
CGAGAGTC | -0.204
ATCTTCCG | -0.0319
AGCTTCTA | 0.0356
AGTGCCAC | -0.228
CGTGTCTA | -0.0215
CGACGCGC | -0.222
CTACACGA | 0.0716
AGCGGAGA | -0.0556
AAAGTGTA | 0.234
AAGCCAAG | -0.192
ACCATCGC | -0.0701
CCTGACCC | -0.238

Block 2 — technique: RNA Bind-n-Seq; molecule type: RNA; sample: in vitro; tested at: 365 nM; relative to: no-protein control; direction: higher = stronger binding
Target: RNA binding protein fox-1 homolog 2, RRM domain, GST-SBP tag (RBFOX2, Homo sapiens, UniProt O43251-10, residues 100-194)
Setting: natural RNA segment, single round, ends assumed
Shared flanks, not repeated: GGGAGUUCUACAGUCCGACGAUC … UGGAAUUCUCGGGUGCCAA
Construct (chain): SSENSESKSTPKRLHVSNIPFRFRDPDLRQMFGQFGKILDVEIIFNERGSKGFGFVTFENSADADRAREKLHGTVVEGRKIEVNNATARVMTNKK
Sequence | RBNS enrichment (R)
AAGGACUCUUAAGCGUGAGGCCAAGGAGCCACGUCCCUUCCCAGUCUGCCUGGCCCAGGGGGGCUGCCCCCAUUCCUGGAGCCCAGGGGCCCAGCUUGCAAUUGCUAGUG | 0.255
CGAGUCAAAAGCUUCAGUGAGUUACAUCUCAUUCAAUCUCCAGAAGAUUGGGAUUAUCGUCUUCUAAGAGGUUGCUAAUGCCUUUCAUCUUGAAGUUACACAUAACUUCU | 0.337
UACCCCCAUGAGGGGAUUCCCUUCCUUCUGUUGCUGGUGUACUCUAGGACUUCAAAGUGUGUCUGGGAUUUUUUUAUUAAAGAAAAAAAAUUUCUAGCUGUCCUUGCAGA | 0.379
CUGUAUAUUGAGGGUUCCAUUCUUCGCGCAGUUUAGACAUCUCUGUUUUGAUUCUUUGUUGUUGUUUUUAUUUUAAAAGGCACAAACUCUAGAUAUUAGUUGAAUGUUGA | 0.605
AUGCCUUACUUGACCUUCCUAGGAACUGUUGAUCAGCUACCUCUUUCUGUCAAGUGUUGGUAGAAUGGGCUGAAAAGACAGGUACUUGCACCGAAAGAGCUCUUCUUUUC | 0.169
CUCCAAGCCCGGCAGGCAUCCCCUGCCUGGAAGUGACCACAGUGAGAGCUGCCUUAUAUUCCUACAUUCCAGGCCAGAACCAGCACAGGACUGAACACAUCCCUGGUUGU | 0.307
AUUCAAGUGUUUCAAAAUUCAAAGCAUUGUAUUCAAAGUUGCAGUGAAGGCAUCAACUUAUGUAAAAACUCAGAAGGAAGGCUCCUCUGAUAAAAACACAGCUCCUUUAU | 0.485
CUGUUCUAGUGGUUGUAGGGUAAAGACGAACUGGUGAAGCAGUCGUAGCGCCGACCGAAGGUGAUUCCAGUUGUAUAUGUCACGCAGCAUUCGAAGGGACUGUGCACGCU | 3
UUUCUGCGUUGCCCUCCAGAUCCUGAGGUGGGCCGUGAGACGACUUGCUUUAAACUCUGUUCAAUCCCCAGGCUUUCUGAGUCCGCUCUACCUUUUCUGGGUGAUCUUGU | 0.325
UUUGUAGUCUAGUCUAUUCUGAAGAUAUUUGAUUAAUAUAUUUCUAAGAAGACCACUAGUCCCAUGAAGUCUCACCUUGUUGACUUCCACCAGAACAAAACCUGUUAAUU | 0.257
CACAGAGAAACCCUGUCUCAAAAAAACCAACCAAACAAAAACAAAAACAAAAUGUGUCCUACUUAAUUGGUAUAUGUGUUUUUCAAACAAUCAUUUGAGGGGUGUUUUGA | 0.635
CGCAGGAGCAGGAGUGGCUCCAAGCUGUGCUCUCCAUGAACUCUGGCUCUGGGGAGAUUUCUAGUAACUCUUCAAUCUGUACUUUCUGUGCCCGCCUCGGUUUUGAGUUG | 0.432

Block 3 — technique: RNA Bind-n-Seq; molecule type: RNA; sample: in vitro; tested at: 200 nM; setting: whole 134-nt RNA, ends assumed; added: 150 mM KCl; relative to: input library; direction: higher = stronger binding
Target: Ras GTPase-activating protein-binding protein 1, full length (G3BP1, Homo sapiens, UniProt Q13283)
Sequence of UniProt Q13283 (whole entry, looked up): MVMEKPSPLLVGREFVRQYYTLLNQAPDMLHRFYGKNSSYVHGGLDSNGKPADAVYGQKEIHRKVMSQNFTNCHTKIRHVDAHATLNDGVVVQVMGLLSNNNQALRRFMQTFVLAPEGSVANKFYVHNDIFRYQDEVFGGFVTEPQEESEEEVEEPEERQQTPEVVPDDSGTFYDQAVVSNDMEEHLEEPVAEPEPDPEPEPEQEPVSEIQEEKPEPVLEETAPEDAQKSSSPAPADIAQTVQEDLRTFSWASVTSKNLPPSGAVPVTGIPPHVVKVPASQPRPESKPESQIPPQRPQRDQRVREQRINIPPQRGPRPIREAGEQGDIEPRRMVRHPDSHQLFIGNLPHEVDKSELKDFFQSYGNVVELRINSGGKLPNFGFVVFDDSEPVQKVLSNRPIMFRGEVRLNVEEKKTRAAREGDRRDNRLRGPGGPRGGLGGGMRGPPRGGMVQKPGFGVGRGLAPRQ
Shared flanks, not repeated: GGGAGUUCUACAGUCCGACGAUC … UGGAAUUCUCGGGUGUCAAGG
Sequence | log2 enrichment
CCUCAAGUCCUGUGCUACACAUCGUAUGUACCGAAUCGGAGGGGAGGGGAGGGAAAGUAUUAUGUUACGCCGUUCGGAUCUGCACUUCCA | 1.34
GUCCUGUGCUACACAUCGUAUGUACCGAAUCGGGUUUUUUUGGGUUUGGGUUUUUGGGAAAGUAUUAUGUUACGCCGUUCGGAUCUGCAC | -0.4
CCUGUGCUACACAUCGUAUGUACCGAAUCGGGGUUUUUUUGGGGUUUUUUUGGGGAGGGGAAAGUAUUAUGUUACGCCGUUCGGAUCUGC | 0.208
ACCAUGCAGGUGGGCAUCUUUGGGAAGUGGGGCAAGGGGGGGAUAGGGAGGGGGGUAACACUUUGGGAACACGUGGUCCCAGGUCGUUUC | 0.739
ACCAUGCAGGUGGGCAUCUUUGGGAAGUGGGGCAAGGGGGGGAUAGGGAGGGGGGUAACACUUUGAGAACAGGUGGUCCCAGGUCGUUUC | 1.23
CUCAAGUCCUGUGCUACACAUCGUAUGUACCGAAUCGGAAGGGAAGGGAAGGGGAAAGUAUUAUGUUACGCCGUUCGGAUCUGCACUUCC | 0.493
GCAGGAAGUAAAAACAAAUGGAAAUGCUUCGGAUAGUGACAGGGGUGGGGGUUGCUAAGGAAAGGGUGGGAUGGGAGUGGGUAAAGAGUU | 0.867
AGUCCUGUGCUACACAUCGUAUGUACCGAAUCGGGGUUUUUGGGGAAAGGGGUGGGGAAAGUAUUAUGUUACGCCGUUCGGAUCUGCACU | 0.242
UUCAAAACAGAAUCCUUCCAGUCCUCUUCAGCGUUUAAUUCCAGGCUCAAACUUGGACAGUGAACCCAGAAUUCAAACAGAUAUACUAAA | 0.464
CUCAAGUCCUGUGCUACACAUCGUAUGUACCGAAUCGGAGGUUUUUUUGGUGGAAAGUAUUAUGUUACGCCGUUCGGAUCUGCACUUCCA | -0.493
GUCCUGUGCUACACAUCGUAUGUACCGAAUCAAACCCCCAAAUUUUUAAAUUUUUAAAAAAGUAUUAUGUUACGCCGUUCGGAUCUGCAC | 0.136
AGUCCUGUGCUACACAUCGUAUGUACCGAAUCGGUUUUUUUGGUUUGGUUUUUUUGGAAAGUAUUAUGUUACGCCGUUCGGAUCUGCACU | -1.29
CACAGACAACACUCACCCACACAGACACAGAGGGAAGGGGUUGGGAUGGGGACAGGGUGCACAGCAGGGCGGGGUAGGACCCCAGCCCCU | 1.74
CACAGACAACACGCACCCACACAGACACAGAGGGAAGGGGAAAGGAUGGGGACAGGGUGCACAGCAGGGCGGGGUAGGACCCCAGCCCCU | 1.79

Block 4 — technique: protein-binding microarray; molecule type: double-stranded DNA, one strand shown; sample: in vitro; tested at: 250 nM; setting: 60-bp whole probe; added: salmon DNA 0.4 mg/ml; relative to: random background probes; direction: higher = stronger binding; shared flanks, not repeated: GCCTAGCAC … GTCTTGATTCGCTTGACGCTGCTG
Target: Interferon regulatory factor 7, full length, phosphomimetic (IRF7, Homo sapiens, UniProt Q92985, residues 1-503, S101K/S471D/S472D/S475D/S476D/S477D/S483D/S484D/S487D)
Construct (chain): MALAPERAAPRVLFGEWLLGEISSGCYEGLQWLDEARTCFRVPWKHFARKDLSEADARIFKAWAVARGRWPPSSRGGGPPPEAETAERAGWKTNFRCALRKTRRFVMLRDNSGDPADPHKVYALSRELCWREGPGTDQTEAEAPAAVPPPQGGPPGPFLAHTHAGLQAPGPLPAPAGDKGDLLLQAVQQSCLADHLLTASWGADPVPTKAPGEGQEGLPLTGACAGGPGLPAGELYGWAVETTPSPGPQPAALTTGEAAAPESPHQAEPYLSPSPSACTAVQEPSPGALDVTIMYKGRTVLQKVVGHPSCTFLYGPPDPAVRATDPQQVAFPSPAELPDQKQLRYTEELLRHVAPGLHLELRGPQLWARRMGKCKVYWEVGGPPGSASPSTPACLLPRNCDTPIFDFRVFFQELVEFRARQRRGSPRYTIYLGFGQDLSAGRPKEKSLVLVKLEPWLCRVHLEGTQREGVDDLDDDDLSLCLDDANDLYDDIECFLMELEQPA
Sequence | log fluorescence
TTCTCTTTCACTGCTGCCCTGTGCTAG | 1.04 z-score
TTAGATCTCAGACTGGATTCGTGCTAG | 0.322 z-score
GACGGACCGCTTATCCTGACGTGCTAG | 0.00015 z-score
GACGGATTGGACACTGGGGACGTGCTA | -0.669 z-score
CCTGAAATCTCTTTCCTTACGTGCTAG | 0.194 z-score
TCAAATGCCCTTTTGGTACTGTGCTAG | 0.0362 z-score
TGAGGTTTCGACACTGGGTTAGTGCTA | 3.16 z-score
TTAGGTTCCGGTTTAGGTTAGTGCTAG | 8.03 z-score
TACTCTTGTGACTATGGACCGTGCTAG | 0.593 z-score
GACCAACTGGGGACTGGAGACGTGCTA | -0.389 z-score
TTAGGTATCGACTTTCGGTTTGTGCTA | 6.08 z-score
GACGGCATCCTTCTCCTGACGTGCTAG | -0.581 z-score
TCATTTTAAAGTTTCAGACTGTGCTAG | 1.53 z-score
TTAGGACTGAGTATCGATTAGTGCTAG | 0.665 z-score
TTAGGTTCCGTTTTCGGTTAGTGCTAG | 8.5 z-score
TTAGGCATCGGGACTGGGTTAGTGCTA | -0.458 z-score
GACGGACTGGGGTTTCCGGACGTGCTA | -0.303 z-score
TTGGATTTCAGTTTCGATTAGTGCTAG | 9.08 z-score
GACGGACGGGACTTTCGGGACGTGCTA | -0.661 z-score
